Measurements collected from several papers.
Numbered parts are unrelated; each lists some results of a single study. Changes are numbered by the printed parent chain.

Set 1 — target: CCNE1, cyclin fold, Cln2 fusion (human); method: yeast growth competition, sequencing; matrix: yeast; notes: weak parent motif; baseline: not given; direction: higher = stronger binding; measurement: normalised enrichment score
Starting sequence: CDC6 docking peptide (human); TLKGRRLVFDNQL
TLIGRRLVFDNQL [K3I]: 1.01
TLKGRRLVFDNQY [L13Y]: 0.456
TLKGKRLVFDNQL [R5K]: 0.266
TLKGRRLVCDNQL [F9C]: -0.368
TDKGRRLVFDNQL [L2D]: -0.0223
TLKGRRAVFDNQL [L7A]: 0.265
TLKGRRQVFDNQL [L7Q]: 0.615
TLKGRHLVFDNQL [R6H]: -0.0601
TLKGRRMVFDNQL [L7M]: -0.0653
TLKGRRLVKDNQL [F9K]: 1.04
TLKGRRCVFDNQL [L7C]: -0.251
TLKGPRLVFDNQL [R5P]: -0.0982
TLKGRRLVFENQL [D10E]: -0.31
TLKGRRLIFDNQL [V8I]: 0.828
TLKGRRLVVDNQL [F9V]: -0.951
TLKGRRLVWDNQL [F9W]: 0.404
TLKGRRLKFDNQL [V8K]: 0.31
TLYGRRLVFDNQL [K3Y]: 0.772
TLKGRRHVFDNQL [L7H]: 0.512
TLKGRRLVADNQL [F9A]: 0.0761
THKGRRLVFDNQL [L2H]: 0.276
TLKGTRLVFDNQL [R5T]: 0.846

Set 2 — method: RNA Bind-n-Seq; form: RNA; matrix: in vitro; tested at: 365 nM; baseline: no-protein control; direction: higher = stronger binding; measurement: RBNS enrichment (R)
Target: RNA binding protein fox-1 homolog 2, RRM domain, GST-SBP tag (RBFOX2, Homo sapiens, UniProt O43251-10, residues 100-194)
Notes: natural RNA segment, single round, ends assumed
All sequences stand within: GGGAGUUCUACAGUCCGACGAUC … UGGAAUUCUCGGGUGCCAA
Target sequence (chain): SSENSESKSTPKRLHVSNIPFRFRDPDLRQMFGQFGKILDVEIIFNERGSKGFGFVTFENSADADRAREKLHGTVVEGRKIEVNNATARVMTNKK
AACCAGUGAAGUUUGAUGGACUGUGCAUAGAGUUUUGCAGCUUUUGAGUAGUGUGACAGAGUUUGCCUCUUAAAAUUGUUUUGCUAAUAAGUCAGAAGUUUAAAAUGUGU: 2.34
CCCUUUCUUGGUGUGUGGGGGAUCUAUGGCCAUCUCCUACCAUGAGGGAGCUACCCAGCUUCCUGUGGUACCAAGGAGUUAUUUUGGAUGAUUAGAAGCACAGAAUGAUC: 0.568
AUGAAAUGUCACCACCCGUUUGCGCUCUCAUUCCUUCCAAGCCUGUGACUGGUAUUUUCUCAUGAUGAAUCCUCUCAGGACAUGGCAGAGCUUGGCGAGUACAAAGGGAG: 0.414
CAAAGGAGCGUCUCUGGCAGUCAAGAUAAAAAAACAGUUUCUAUUGUAUUUUGUGGAACUGUAUCUGUUGUCAUUUUUAAAAAGGGGGGAAAAGAUAACAUCCAAGUCUG: 0.774
GACUUCAUCCUGCCUUUGUCUUCGAAGCUAUCAGGGAACUGCGGGGUCCCAAAUAUGAUAAUCACGUGGCACCUCUGGCAUUGCUCCCUUGGGCUGUCACUGGGGACUGG: 0.478
AAUCCAUUUAUUUCAUUUACAAAAGAUUUAUUGUAAGCAUCUCAAUCUUGGUUUGUCAGUUUAUCUUAAGCAUGUCAAUUCAUAAAAACAAGUCAUUUUUGUAUUUUUCA: 11.7
UCACUUUUGUUUUAAAGUGGUCCCUCCAAGAAUAAUGUGGCAUACACAGUGGGUUUGGUUGUAAGGCAGAUGUAAUAGAUGACUUCAAAAGCCUGCUCCUUACUGCACUC: 0.331
UACAAGCUCUUGCCUCUGUGCCUUUCUCAUGCUAUUCUUUUUGCUUAGAUUGCUCUUUGGUCCCAGCUCAUGUUCAUCACUCCCUUCAAAGCCUUUCUUCCUUUAUAUCU: 0.516
UAAGUCUGAUUCUCUUUAACUGUGUGACCAGCGGAAACAGGUGUGUGUGAACUGGGCACAGAUUGAAGAAUCUGCCCCUGUUGAGGUGGGUGGGCCUGACUGUUGCCCCC: 0.565
AGAAAUAAAGUGCAUGAACUGUUCUCUGCUAUAUCCUAGUCUCCCACACAGUGCGAGUCGGAGUGAGUCCCGCUGGUCCUGCCCAUGCAGGGCACAGAGCUGGCUCACCC: 27.3
GAAAAUUUAUGACUACCAAAUAUUUAGGAUACUUAGAAAUAUUUUACUACAUAUGAAUCUGAUAUUCUUAAUAAAGUAUUACUUUAAAUUUUCCAGCAGUAACAUUUAGA: 0.486
UACCAGAGCUCCUGCCUACCAAGACUGGAUGAAAGAAGCAGCUUUGAUGGGGUCUUUCCAUCCUCACCCUUAGACUCUCAACCAAAGAGAAAGGGCUGGAGGAUGCCCCC: 0.452

Set 3 — method: aptamer microarray, sandwich; form: DNA with 2'F-ANA; matrix: in vitro; tested at: 200 nM; with: Cy3 exosite-II aptamer, 400 nM; direction: higher = stronger binding; measurement: mean fluorescence intensity; oligonucleotide: GGTTGGTGTGGTTGG
Target: Prothrombin, mature alpha-thrombin (F2, Homo sapiens, UniProt P00734)
Notes: whole 15-mer aptamer, many near background
2'F-ANA at 3 4 7 8 12 13: 998 a.u.
2'F-ANA at 1 2 3 5 7 9 12 13 14: 48.5 a.u.
2'F-ANA at 3 7 8 9 10 12 14: 436 a.u.
2'F-ANA at 1 2 3 4 5 6 8 11 12 13 14 15: 56.5 a.u.
2'F-ANA at 4 5 6 7 9 12 13 15: 72.2 a.u.
2'F-ANA at 4 8 10 12 13: 83.5 a.u.
2'F-ANA at 1 5 8 9 13 14: 43.9 a.u.
2'F-ANA at 1 3 5 6 8 9 10 11: 48.7 a.u.
2'F-ANA at 3 4 6 7 10 11 12 15: 295 a.u.
2'F-ANA at 3 6 7 8 10 11 15: 444 a.u.
2'F-ANA at 2 3 4 5 7 13 14: 54.5 a.u.
2'F-ANA at 3 5 6 10 14: 49.7 a.u.
2'F-ANA at 1 2 3 4 5 7 8 9 10 12 13 15: 62.1 a.u.
2'F-ANA at 2 3 4 6 7 12 14 15: 288 a.u.
2'F-ANA at 1 6 8 9 10 12: 89.1 a.u.
2'F-ANA at 2 6 7 9 15: 335 a.u.
2'F-ANA at 1 3 4 5 6 7 8 10 12 14 15: 66.7 a.u.
2'F-ANA at 2 3 4 7 9 12 13 14: 265 a.u.
2'F-ANA at 3 4 6 7 8 9 11 12 13 14: 279 a.u.
2'F-ANA at 1 3 5 9 11 12 13 15: 75.3 a.u.
2'F-ANA at 1 2 4 5 6 9 10 11 13 14 15: 46.8 a.u.
2'F-ANA at 2 4 7 9 15: 365 a.u.
2'F-ANA at 1 3 5 10 11: 46.8 a.u.
2'F-ANA at 2 5 8 9 12: 180 a.u.
2'F-ANA at 2 3 4 5 6 7 8 9 11: 611 a.u.

Set 4 — method: RNA Bind-n-Seq; form: RNA; matrix: in vitro; tested at: 200 nM; notes: whole 134-nt RNA, ends assumed; with: 150 mM LiCl; baseline: input library; direction: higher = stronger binding; measurement: log2 enrichment; library: 7-deaza-guanosine replaces G
Target: Ras GTPase-activating protein-binding protein 1, full length (G3BP1, Homo sapiens, UniProt Q13283)
Chain of UniProt Q13283 (whole entry, looked up): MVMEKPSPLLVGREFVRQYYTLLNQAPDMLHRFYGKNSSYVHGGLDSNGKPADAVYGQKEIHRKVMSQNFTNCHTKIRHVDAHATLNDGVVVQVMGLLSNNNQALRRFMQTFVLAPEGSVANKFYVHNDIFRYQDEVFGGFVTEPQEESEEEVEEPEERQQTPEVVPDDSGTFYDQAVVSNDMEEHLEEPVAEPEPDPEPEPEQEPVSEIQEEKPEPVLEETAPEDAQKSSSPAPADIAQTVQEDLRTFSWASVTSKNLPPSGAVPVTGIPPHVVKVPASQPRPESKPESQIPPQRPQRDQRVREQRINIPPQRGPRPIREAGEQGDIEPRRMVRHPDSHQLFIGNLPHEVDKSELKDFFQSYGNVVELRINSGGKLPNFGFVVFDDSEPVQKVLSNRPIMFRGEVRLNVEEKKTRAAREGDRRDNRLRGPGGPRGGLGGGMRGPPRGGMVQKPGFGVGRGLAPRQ
All sequences stand within: GGGAGUUCUACAGUCCGACGAUC … UGGAAUUCUCGGGUGUCAAGG
CCUGUGCUACACAUCGUAUGUACCGAAUCGGAAAAAAGGGGAAAAAAGGGAAAAAAGGGGAAAGUAUUAUGUUACGCCGUUCGGAUCUGC: 0.139
AGUCCUGUGCUACACAUCGUAUGUACCGAAUCGGGGUUUUGGGUUUUGGGUUUUGGGAAAGUAUUAUGUUACGCCGUUCGGAUCUGCACU: -0.523
UCCUGUGCUACACAUCGUAUGUACCGAAUCGGCCCCCCGGGGCCCCCCGGCCCCCCGGGGAAAGUAUUAUGUUACGCCGUUCGGAUCUGC: -1.36
CUGUGCUACACAUCGUAUGUACCGAAUCAAACCCCCCCAAAUUUUUUUAAAUUUUUUUAAAAAAGUAUUAUGUUACGCCGUUCGGAUCUG: 1.1
GUCCUGUGCUACACAUCGUAUGUACCGAAUCGGGGUUUGGGGUUUUUGGGGUUUGGGGAAAGUAUUAUGUUACGCCGUUCGGAUCUGCAC: 0.197
UAACUUUAGAGGAGGAUCUGAUGGAUAUGGCAAUGGACGUGGAUUUGGGGAUGGCUAUAAUGGGUAUGGAGGAGGACCUGGAGGUGGCAA: -0.166
CUCAAGUCCUGUGCUACACAUCGUAUGUACCGAAUCGGGGAAGGAAGGAAGGGGAAAGUAUUAUGUUACGCCGUUCGGAUCUGCACUUCC: -0.26
UGUGAGCUGACUUUUUGGAUCAACUUUACUUUUCCCUUCUUUUUAGGCAAUUGAAGAUGAAGGUGGUAAUCCUGACGAAAUUGAAAUUAC: 0.425
GCAGGAAGUAAAAACAAAUGGAAAUGCUUCGGAUAUUGGCAGGGGUGGGGGUUGCUAAGGAAAGGGUGGGAUGGGAGUGGGUAAAGAGUU: 0.292
CUGUGCUACACAUCGUAUGUACCGAAUCGGAAAAAAAGGGGAAAAAAAGGGAAAAAAAGGGAAAGUAUUAUGUUACGCCGUUCGGAUCUG: -0.312
GUCCUGUGCUACACAUCGUAUGUACCGAAUCGGGGUUUUGGGGUUUUGGGGUUUUGGGGAAAGUAUUAUGUUACGCCGUUCGGAUCUGCA: -0.00781

Set 5 — method: protein binding microarray; form: double-stranded DNA, one strand shown; matrix: in vitro; tested at: not given; baseline: not given; direction: higher = stronger binding; measurement: E-score
Target: Histone acetyltransferase KAT6A, winged helix 1, GST fusion (KAT6A, Homo sapiens, UniProt Q92794, residues 1-85)
Notes: 8-mer, flanks averaged, mean of 2 arrays, mostly near background
Construct (chain): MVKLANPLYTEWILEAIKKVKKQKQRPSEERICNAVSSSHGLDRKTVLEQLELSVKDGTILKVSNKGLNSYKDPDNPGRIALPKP
TCTAAGAA: -0.127
AAGTCTCC: -0.136
CACTGACG: 0.0536
CACGGTAG: 0.136
CTCTAATC: 0.00123
AAGTCTAA: -0.107
AAACGTGA: -0.138
GTTACGTA: 0.0234
AGCGATGG: 0.0766
CGTCTACC: 0.0687
AGTCAGCA: -0.0711
GGGATGCA: -0.0974
AGGGGACG: -0.0902
GTTATTTA: 0.0504
CGGGTGCA: 0.0709
CGCACTGC: 0.263
CGTGACAG: 0.0327
GATCATTA: 0.0554
ATTAAAAG: 0.0114
ATTGGGGG: -0.246
ATGCAGAC: -0.206
GAAACCAC: -0.198
GACGTCCA: 0.04
AGCGAGAA: -0.126

A few entries again (set 3):
2'F-ANA at 3 6 7 8 10 11 15: 444 a.u.
2'F-ANA at 2 3 4 5 7 13 14: 54.5 a.u.
2'F-ANA at 3 4 6 7 10 11 12 15: 295 a.u.
2'F-ANA at 2 3 4 5 6 7 8 9 11: 611 a.u.
2'F-ANA at 1 3 4 5 6 7 8 10 12 14 15: 66.7 a.u.
2'F-ANA at 1 3 5 6 8 9 10 11: 48.7 a.u.
